Results gathered from unrelated publications.
± gives the spread as reported.

[Cl][Au].[Se]=c1n(C2CCCCC2)ccn1C1CCCCC1
IC50 (H157 lung carcinoma cells; cell viability, MTT; 72 h): 0.6 ± 0.05 µM

C[C@H]1[C@H](OC(=O)CCC(=O)OCCc2ccc(O)cc2)O[C@@H]2O[C@@]3(C)CC[C@H]4[C@H](C)CC[C@@H]1[C@@]24OO3
IC50 (SK-MEL3; cell viability, MTT; 24 h, with: deferoxamine 20 µM, 1 h before): 10.5 ± 2.3 µM

CCOC(=O)[C@H]1Cc2c(cc([N+](=O)[O-])cc2[N+](=O)[O-])[C@@H](O)[C@@]12C(=O)Nc1ccccc12
IC50 (U-251; cell growth or viability, MTT; 24 h): 43.6 µM

C[C@H]1C(OCCCCCCCCCC[P+](c2ccccc2)(c2ccccc2)c2ccccc2)O[C@@H]2O[C@@]3(C)CCC4[C@H](C)CCC1[C@]42OO3 (stereo partly drawn)
IC50 (T24; cell growth or viability, MTT; 72 h): 0.107 µM

N=C(N)NCCC[C@H](NC(=O)[C@@H]1CSSC[C@H](NC(=O)[C@H](Cc2ccc3ccccc3c2)NC(=O)[C@H](CCCNC(=N)N)NC(=O)[C@H](CCCNC(=N)N)NC(=O)c2ccc(F)cc2)C(=O)N[C@@H](Cc2ccc(O)cc2)C(=O)N[C@@H](CCCNC(N)=O)C(=O)N[C@@H](CCCCNC(=O)CN2CCN(CC(=O)O)CCN(CC(=O)O)CCN(CC(=O)O)CC2)C(=O)N[C@H](CCCCNC(=O)CN2CCN(CC(=O)O)CCN(CC(=O)O)CCN(CC(=O)O)CC2)C(=O)N2CCC[C@H]2C(=O)N[C@@H](Cc2ccc(O)cc2)C(=O)N[C@@H](CCCNC(=N)N)C(=O)N[C@@H](CCCNC(N)=O)C(=O)N1)C(N)=O [copper-64 labelled]
IC50 (mouse red blood cells; binding, homologous displacement; 45 min, room temperature): 0.0684 µM

COC(=O)C1CN1S(=O)(=O)c1ccc(C)cc1 (stereo not drawn)
IC50 (HT-1080; cell growth or viability, MTT; 48 h): 160 µM

OC[C@H]1[C@@H](O)[C@@H](O)CN1Cc1ccc(I)cc1
IC50 (K562-Tax; cell growth or viability, MTS; 72 h): 103 µM

C[C@H]1O[C@@H](O[C@H]2CC[C@@]3(C)[C@H](CC[C@@H]4[C@@H]3CC[C@]3(C)[C@@H](C5=CC(=O)OC5)[C@@H](O)C[C@]43O)C2)C[C@H](O)[C@@H]1O[C@@H]1O[C@H](CO)[C@@H](O)[C@H](O)[C@H]1O
IC50 (BEAS-2B; cell growth or viability, MTT; 48 h): 1.16 µM

C#CCSc1nc(Sc2nnnn2C)c2nnn(Cc3ccccc3)c2n1
IC50 (THP-1; cell growth or viability, MTS; 6 days): 1.14 µM

C1=C[N]2c3c4c(ccc3=C1)=CC=C[N]4[Ru+2]213([N]2C=CC=c4ccc5c(c42)[N]1C=CC=5)[N]1C=CC=c2c1c1c(c4nc5c6cccnc6c6ncccc6c5nc24)=CC=C[N]13
IC50 (H226; cell viability, MTT; 96 h): 49.2 ± 3.1 µM

C[C@@H](N)[C@H](O)CCCCCCCC(=O)CCCCCCCCCCCCCC[C@@H](O[C@@H]1O[C@H](CO)[C@@H](O)[C@H](O)[C@H]1O)[C@@H](N)CO
IC50 (MCF-12A; cell growth or viability, resazurin; 96 h): 19.8 µM

F[P-](F)(F)(F)(F)F.OCP(CO)CO.OCP(CO)CO.OCP(CO)CO.OCP(CO)CO.[Cu+]
IC50 (HFF-1; cell growth or viability, MTT; 72 h): 31 µM

CC1=C(C(=O)Nc2ccc(F)cc2)C(c2ccccc2Cl)NC(=S)N1 (stereo not drawn)
IC50 (THP-1; cell growth or viability, MTT; 24 h): 197 µM

CC(C)C[C@H](NC(=O)[C@H](CC(C)C)NC(=O)[C@H](Cc1c[nH]cn1)NC(=O)[C@H](CCC(=O)O)NC(=O)[C@H](CC(C)C)NC(=O)[C@H](Cc1c[nH]cn1)NC(=O)[C@H](CCC(=O)O)NC(=O)[C@H](CC(C)C)NC(=O)[C@H](CC(C)C)NC(=O)[C@H](Cc1c[nH]cn1)NC(=O)[C@H](CCC(=O)O)NC(=O)[C@@H](N)CC(C)C)C(=O)N[C@@H](CCC(=O)O)C(=O)N[C@@H](Cc1c[nH]cn1)C(N)=O
IC50 (4T1; cell growth or viability, MTT; pH 7.4): > 100 µM

Cc1ccc(C(C)C)cc1.Clc1ccc2c(NCCNCc3ccccn3)ccnc2c1.[Cl-].[Cl][Ru+]
IC50 (CHO; cytotoxicity, MTT): > 160 µM

CC(C)C[C@H](NC(=O)[C@H](CCCCN)NC(=O)[C@H](CC(C)C)NC(=O)[C@H](CC(C)C)NC(=O)[C@H](CCCCN)NC(=O)[C@H](CCCCN)NC(=O)[C@H](CC(C)C)NC(=O)[C@H](CC(C)C)NC(=O)[C@H](CCCCN)NC(=O)[C@H](CC(C)C)NC(=O)[C@H](CC(C)C)NC(=O)[C@H](CCCCN)NC(=O)[C@H](CCCCN)NC(=O)[C@H](CC(C)C)NC(=O)[C@@H](N)CSSC[C@H](N)C(=O)N[C@@H](CC(C)C)C(=O)N[C@@H](CCC(=O)O)C(=O)N[C@@H](CCC(=O)O)C(=O)N[C@@H](CC(C)C)C(=O)N[C@@H](CC(C)C)C(=O)N[C@@H](Cc1c[nH]cn1)C(=O)N[C@@H](Cc1c[nH]cn1)C(=O)N[C@@H](CC(C)C)C(=O)N[C@@H](CCC(=O)O)C(=O)N[C@@H](CCC(=O)O)C(=O)N[C@@H](CC(C)C)C(=O)N[C@@H](CC(C)C)C(=O)N[C@@H](Cc1c[nH]cn1)C(=O)N[C@@H](Cc1c[nH]cn1)C(N)=O)C(N)=O
IC50 (4T1; cell growth or viability, MTT; pH 6): 15.3 µM

COc1cc(C=CC(=O)CC(=O)C=Cc2ccc(OC(=O)CCC(=O)OC3OC4OC5(C)CCC6C(C)CCC(C3C)C46OO5)c(OC)c2)ccc1OC(=O)CCC(=O)OC1OC2OC3(C)CCC4C(C)CCC(C1C)C24OO3 (stereo not drawn)
IC50 (SK-MEL3; cell viability, MTT; 24 h, with: deferoxamine 20 µM, 1 h before): 3.8 ± 0.8 µM

CN(C)CC1C(=O)OC2C1CCC1(C)CC1CCC1(C)OC21 (stereo not drawn)
IC50 (NCI/ADR-RES; cell growth, inhibitor, Alamar blue): 11.7 ± 3.1 µM

N=C(N)NCCC[C@H](NC(=O)[C@H](CCCNC(=N)N)NC(=O)[C@@H]1CCCN1C(=O)[C@H](CCCNC(=N)N)NC(=O)[C@H](CCCNC(=N)N)NC(=O)[C@H](CCCNC(=N)N)NC(=O)[C@H](Cc1c[nH]c2ccccc12)NC(=O)[C@H](CCCNC(=N)N)NC(=O)[C@H](CCCNC(=N)N)NC(=O)[C@H](CCCNC(=N)N)NC(=O)[C@H](CCCNC(=N)N)NC(=O)[C@H](CCCNC(=N)N)NC(=O)[C@H](Cc1c[nH]c2ccccc12)NC(=O)[C@H](CCCNC(=N)N)NC(=O)[C@H](CCCNC(=N)N)NC(=O)[C@H](Cc1ccc(O)cc1)NC(=O)[C@H](CCCNC(=N)N)NC(=O)[C@H](CCCNC(=N)N)NC(=O)[C@H](CCCNC(=N)N)NC(=O)[C@@H](N)Cc1c[nH]c2ccccc12)C(N)=O
IC50 (Hs68; cell viability, CellTiter-Blue; 24 h, serum-free medium): 10.8 ± 0.3 µM

C1=CCCC=CCC1.C1=CCCC=CCC1.O=C(N=P12CN3CN(CN(C3)C1)C2)c1cccc[c]1[Pt+].O=C(N=P12CN3CN(CN(C3)C1)C2)c1cccc[c]1[Pt+].[Cl][Hg-]([Cl])[Cl].[Cl][Hg-]([Cl])[Cl].[Cl][Hg][Cl].[Cl][Hg][Cl]
IC50 (MIA PaCa-2; cell growth or viability, MTT; 24 h): 7.53 µM

CCOC(=O)[C@@H]1Cc2c(cc([N+](=O)[O-])cc2[N+](=O)[O-])[C@H](O)[C@]12C(=O)Nc1ccc(Br)cc12
IC50 (U-87 MG; cell growth or viability, MTT; 24 h): 3.6 µM

CC(C)c1cccc(C(C)C)c1-n1c[n+](-c2c(C(C)C)cccc2C(C)C)c2c1-c1cccc3cccc-2c13.[Cl][Pd-]([Cl])[CH2]C=Cc1ccccc1
IC50 (CHO; cell growth or viability, MTT; 72 h): 8 µM

C=CC[P](c1ccccc1)(c1ccccc1)[Pt]([S]c1nc2ccccc2[nH]1)([S]c1nc2ccccc2[nH]1)[P](CC=C)(c1ccccc1)c1ccccc1
IC50 (MCF-10A; cell growth or viability, MTT): 47.1 µM

CCC(C)C1OC(=O)C(NC(=O)c2cccc(NC=O)c2O)C(C)OC(=O)C(C(C)CC)OC(=O)C(C)(C)C(=O)C(Cc2ccccc2)OC1=O (stereo not drawn)
IC50 (HCT-8; cell growth or viability, CCK-8; 72 h): 0.0303 µM

Excerpt of the above:
[Cl][Au].[Se]=c1n(C2CCCCC2)ccn1C1CCCCC1
IC50 (H157 lung carcinoma cells; cell viability, MTT; 72 h): 0.6 ± 0.05 µM

C[C@H]1[C@H](OC(=O)CCC(=O)OCCc2ccc(O)cc2)O[C@@H]2O[C@@]3(C)CC[C@H]4[C@H](C)CC[C@@H]1[C@@]24OO3
IC50 (SK-MEL3; cell viability, MTT; 24 h, with: deferoxamine 20 µM, 1 h before): 10.5 ± 2.3 µM

CCOC(=O)[C@H]1Cc2c(cc([N+](=O)[O-])cc2[N+](=O)[O-])[C@@H](O)[C@@]12C(=O)Nc1ccccc12
IC50 (U-251; cell growth or viability, MTT; 24 h): 43.6 µM

C[C@H]1C(OCCCCCCCCCC[P+](c2ccccc2)(c2ccccc2)c2ccccc2)O[C@@H]2O[C@@]3(C)CCC4[C@H](C)CCC1[C@]42OO3 (stereo partly drawn)
IC50 (T24; cell growth or viability, MTT; 72 h): 0.107 µM
